Results pooled from the literature.
Numbered parts are unrelated; each lists some results of a single study. Positions count from the first letter of the parent shown.

Sample 1 — method: protein binding microarray; molecule type: double-stranded DNA, one strand shown; sample: in vitro; tested at: not given; baseline: not given; reading: higher = stronger binding; measurement: E-score
Target: Histone acetyltransferase KAT6A, winged helix 1, GST fusion (KAT6A, Homo sapiens, UniProt Q92794, residues 1-85)
Setting: 8-mer, flanks averaged, mean of 2 arrays, mostly near background
Target sequence (chain): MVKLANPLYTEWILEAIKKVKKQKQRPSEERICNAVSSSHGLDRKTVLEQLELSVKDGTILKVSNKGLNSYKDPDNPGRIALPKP
TGTAGCAA: -0.0865
GATATCTA: -0.145
CGGCTCAA: 0.156
GAGAACGC: 0.0157
CAAGACAG: -0.2
ATTCGCCA: -0.0907
CGGTAACG: 0.314
GCCGTCTA: 0.323
AACGGTTC: 0.119
CACCCCGA: -0.0408

Sample 2 — method: RNAcompete; molecule type: RNA; sample: in vitro; tested at: 20 nM; setting: 7-mer, probes averaged, single round; baseline: mean of 7-mers; reading: higher = stronger binding; measurement: 7-mer Z-score
Target: PABPC1L2, full length, GST fusion (mouse, UniProt A0ABA7IW68)
Residues (chain): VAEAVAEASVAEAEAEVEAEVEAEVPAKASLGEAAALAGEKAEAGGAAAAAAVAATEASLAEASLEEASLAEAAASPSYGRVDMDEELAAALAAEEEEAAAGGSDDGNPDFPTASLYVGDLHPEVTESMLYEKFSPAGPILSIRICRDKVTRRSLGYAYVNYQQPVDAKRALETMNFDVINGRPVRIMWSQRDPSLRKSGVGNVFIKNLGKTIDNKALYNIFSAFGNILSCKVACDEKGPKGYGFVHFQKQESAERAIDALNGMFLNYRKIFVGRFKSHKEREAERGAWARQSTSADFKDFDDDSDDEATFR
CAAGUGC: -0.0464
AGGAGCA: 0.162
ACAGUAG: 0.153
UCAGUAA: 0.0189
CGGAAAC: -0.00289
UUACGUU: -0.398
GACGGAA: 0.131

Sample 3 — method: DHFR PCA, deep sequencing; sample: yeast; together with: (+)-ABA 2500 µM; baseline: wild-type fitted maximum; reading: higher = stronger binding; measurement: relative binding score
Target: ABI1, truncated, D143A, DHFR fusion (Arabidopsis thaliana)
Setting: methotrexate growth selection, single substitutions
Starting sequence: PYL1, truncated, DHFR fusion (Arabidopsis thaliana); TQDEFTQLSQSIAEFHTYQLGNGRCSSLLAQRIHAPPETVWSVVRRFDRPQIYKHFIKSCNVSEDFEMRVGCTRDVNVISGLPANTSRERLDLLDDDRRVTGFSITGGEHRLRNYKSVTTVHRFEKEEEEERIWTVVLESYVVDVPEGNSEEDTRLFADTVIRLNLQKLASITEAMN; partner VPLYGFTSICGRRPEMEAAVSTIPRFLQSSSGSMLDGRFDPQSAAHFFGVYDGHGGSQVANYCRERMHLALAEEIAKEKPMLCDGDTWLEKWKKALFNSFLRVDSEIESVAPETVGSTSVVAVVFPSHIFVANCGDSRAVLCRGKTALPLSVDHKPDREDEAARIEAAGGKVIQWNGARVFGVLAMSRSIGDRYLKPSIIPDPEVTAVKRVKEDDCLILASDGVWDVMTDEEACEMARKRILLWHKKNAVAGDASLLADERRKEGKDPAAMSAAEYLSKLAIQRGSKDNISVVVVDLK
E130I: 107%
K126S: 104%
V76M: 84.3%
P83G: 86.7%
N61W: 95.9%
K54I: -1.76%
V142G: 85.5%
S11Q: 104%
A158Y: 19.6%

Single results of other studies
PhoQ, residues 284 288 289 292 302 303 NLALSC  fold induction (PhoP, residues 12 14 15 18 19 VQGLL (Escherichia coli, UniProt P23836); Sort-seq, refers to: YFP reporter; E. coli; PhoQ-PhoP variant library, together with: 10 µM Mg2+; baseline: high Mg2+ state, higher = stronger signaling): 1.92
